Measurements collected from several papers.
Every numbered part comes from another study and shows a few of its results, in no order.

Set 1
Target: Prothrombin, mature alpha-thrombin (F2, Homo sapiens, UniProt P00734)
Method: aptamer microarray, sandwich
Form: DNA with 2'F-ANA
Medium: in vitro
Tested at: 200 nM
Setting: whole 15-mer aptamer, many near background
Added: Cy3 exosite-II aptamer, 400 nM
Reading: higher = stronger binding
Strand: GGTTGGTGTGGTTGG
For `2'F-ANA at 1 2 5 6 9 15`, “mean fluorescence intensity” read 59.3 a.u.
Under “mean fluorescence intensity”, `2'F-ANA at 1 3 4 7 8 9 10 11 12 14` is recorded as 77.8 a.u.
For `2'F-ANA at 1 7 8 9 10 11 14 15`, “mean fluorescence intensity” read 58.8 a.u.
Under “mean fluorescence intensity”, `2'F-ANA at 1 3 4 5 6 10 11 12 13` is recorded as 56.2 a.u.
`2'F-ANA at 1 2 3 8 10 11`: “mean fluorescence intensity” 65.9 a.u.

Set 2
Target: Interferon regulatory factor 5, full length, phosphomimetic (IRF5, Homo sapiens, UniProt Q13568-2, residues 1-514, K96S/S451D/S453D/S456D/S462D)
Method: protein-binding microarray
Form: double-stranded DNA, one strand shown
Medium: in vitro
Tested at: 250 nM
Setting: 60-bp whole probe
Added: salmon DNA 0.4 mg/ml
Reference: random background probes
Reading: higher = stronger binding
Constant ends, left off below: GCCTAGCAC … GTCTTGATTCGCTTGACGCTGCTG
`GACGGGTTCCTTTCCCTGACGTGCTAG` has a log fluorescence of 0.235 z-score.
`GACGGTATCGACTTTCTGGACGTGCTA` gave a log fluorescence of 2.88 z-score.
`GACGGAATCGACTATCGGGACGTGCTA` gave a log fluorescence of 1.97 z-score.
The log fluorescence of `TCATTAATAAGGTTTCCAACTGTGCTA` is reported as 0.448 z-score.
The log fluorescence of `GACGGTTACGGGTATCGGGACGTGCTA` is reported as 0.599 z-score.
`TCAATTTTCTGAATGCTACTGTGCTAG` has a log fluorescence of 1.04 z-score.
`GACGTTTTCGGGTATCGGGACGTGCTA` has a log fluorescence of 6.45 z-score.

Set 3
Target: Histone acetyltransferase KAT6A, winged helix 1, GST fusion (KAT6A, Homo sapiens, UniProt Q92794, residues 1-85)
Method: protein binding microarray
Form: double-stranded DNA, one strand shown
Medium: in vitro
Tested at: not given
Setting: 8-mer, flanks averaged, mean of 2 arrays, mostly near background
Reference: not given
Reading: higher = stronger binding
Construct (chain): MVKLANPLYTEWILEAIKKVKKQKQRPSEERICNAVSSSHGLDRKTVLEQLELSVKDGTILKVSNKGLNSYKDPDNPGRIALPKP
`GTTGTTCA` gave an E-score of -0.0281.
`ATAGCTAG` gave an E-score of -0.11.
`AAGTATCG` has an E-score of -0.00811.
`ATCAGTAA` has an E-score of -0.0928.

Single results of other studies
With `PhoQ, residues 284 288 289 292 302 303 AEGLLW` the fold induction was 1.43 (PhoP, residues 12 14 15 18 19 TPWLV (Escherichia coli, UniProt P23836); Sort-seq, measured: YFP reporter; E. coli; PhoQ-PhoP variant library, added: 10 µM Mg2+; reference: high Mg2+ state, higher = stronger signaling).

For quick reference, copied from above (set 1):
For `2'F-ANA at 1 7 8 9 10 11 14 15`, “mean fluorescence intensity” read 58.8 a.u.
